Published values collected from several papers.
Lines come from different studies, so protocols differ. “And” joins repeats or separate records; there may be more than shown.
UniProt P08684, sequence (whole entry, looked up): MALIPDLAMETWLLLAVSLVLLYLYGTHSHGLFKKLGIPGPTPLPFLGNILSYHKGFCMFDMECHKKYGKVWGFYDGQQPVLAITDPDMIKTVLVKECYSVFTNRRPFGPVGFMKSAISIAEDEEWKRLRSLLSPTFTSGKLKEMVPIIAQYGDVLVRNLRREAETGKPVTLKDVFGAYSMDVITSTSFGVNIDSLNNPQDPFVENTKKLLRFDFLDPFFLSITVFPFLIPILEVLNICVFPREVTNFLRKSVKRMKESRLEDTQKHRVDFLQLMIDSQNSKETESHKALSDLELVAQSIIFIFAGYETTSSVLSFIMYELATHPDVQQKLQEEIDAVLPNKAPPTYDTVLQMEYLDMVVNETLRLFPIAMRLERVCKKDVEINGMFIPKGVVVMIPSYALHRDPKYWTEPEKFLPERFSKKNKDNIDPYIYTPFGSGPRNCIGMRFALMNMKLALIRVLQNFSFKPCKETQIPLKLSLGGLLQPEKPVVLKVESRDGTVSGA
UniProt Q12809, sequence (whole entry, looked up): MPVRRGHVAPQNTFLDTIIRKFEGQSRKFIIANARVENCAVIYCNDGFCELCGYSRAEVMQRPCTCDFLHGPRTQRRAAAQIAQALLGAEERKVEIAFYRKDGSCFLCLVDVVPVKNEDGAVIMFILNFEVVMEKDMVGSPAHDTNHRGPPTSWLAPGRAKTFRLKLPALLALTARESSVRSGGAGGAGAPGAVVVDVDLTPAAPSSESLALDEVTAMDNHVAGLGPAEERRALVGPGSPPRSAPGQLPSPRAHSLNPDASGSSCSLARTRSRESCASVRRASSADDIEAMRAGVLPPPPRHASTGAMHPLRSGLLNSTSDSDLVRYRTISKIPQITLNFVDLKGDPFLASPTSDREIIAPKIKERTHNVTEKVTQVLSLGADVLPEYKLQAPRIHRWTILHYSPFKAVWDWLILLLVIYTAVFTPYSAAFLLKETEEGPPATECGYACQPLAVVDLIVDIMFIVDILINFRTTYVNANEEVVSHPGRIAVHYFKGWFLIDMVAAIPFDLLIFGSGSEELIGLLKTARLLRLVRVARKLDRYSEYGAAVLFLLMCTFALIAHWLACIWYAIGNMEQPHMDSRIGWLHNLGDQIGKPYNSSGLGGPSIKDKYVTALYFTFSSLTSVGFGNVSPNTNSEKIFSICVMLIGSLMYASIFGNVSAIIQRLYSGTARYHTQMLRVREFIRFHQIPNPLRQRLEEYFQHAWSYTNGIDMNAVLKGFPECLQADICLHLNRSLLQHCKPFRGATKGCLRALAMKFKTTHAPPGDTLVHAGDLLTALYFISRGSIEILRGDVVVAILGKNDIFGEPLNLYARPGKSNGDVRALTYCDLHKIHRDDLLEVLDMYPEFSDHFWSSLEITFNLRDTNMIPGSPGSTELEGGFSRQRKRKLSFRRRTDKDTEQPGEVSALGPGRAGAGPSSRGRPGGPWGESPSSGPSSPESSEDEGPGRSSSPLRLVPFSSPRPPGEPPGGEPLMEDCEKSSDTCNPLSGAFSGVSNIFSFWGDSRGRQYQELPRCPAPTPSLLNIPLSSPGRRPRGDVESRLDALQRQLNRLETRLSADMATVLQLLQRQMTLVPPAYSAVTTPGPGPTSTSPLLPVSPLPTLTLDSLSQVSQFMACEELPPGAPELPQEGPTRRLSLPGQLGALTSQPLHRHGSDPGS

CNC1(c2ccccc2Cl)CCCCC1=O (racemic)  inhibition (Voltage-gated inwardly rectifying potassium channel KCNH2 (KCNH2, Homo sapiens, UniProt Q12809); radioligand binding, radioligand displacement; 30 µM): 0%
CCC1(c2ccccc2)C(=O)NC(=O)NC1=O  CYP2B6 activity induction (primary human hepatocytes; inducer; 1000 µM, unit not given; reference: vehicle): 4.66
Cc1cc(C(=O)NC(C)(C)COc2cccc3c2C(N)=NS(=O)(=O)N3)cc(C)n1  revertant ratio (Escherichia coli; Ames test, initial; WP2 uvrA; 500 µg/plate, together with: rat liver S9; reference: solvent control): 0.7
CCN(CC)C(=O)[C@@H]1C=C2c3cccc4[nH]cc(c34)C[C@H]2N(C)C1  half-life (human; oral, 100 µg): 3.36 h and 3.17 h and 3 h and 6.11 h and 3.73 h and 2.85 h and 3.26 h
CO[C@H]1C[C@@H]2CC[C@@H](C)[C@@](O)(O2)C(=O)C(=O)N2CCCC[C@H]2C(=O)O[C@H]([C@H](C)C[C@@H]2CC[C@@H](OC(=O)NCCOCCOCCOCCOCCOCCOCCOCCOCCC(=O)N3CCc4cc(Cn5nc(-c6ccc7oc(N)nc7c6)c6c(N)ncnc65)ccc4C3)[C@H](OC)C2)C[C@@H](O)[C@H](C)/C=C(\C)[C@@H](O)[C@@H](OC)C(=O)[C@H](C)C[C@H](C)/C=C/C=C/C=C/1C  abdominal pain incidence (patients with advanced solid tumours; intravenous, 12 mg weekly, grade 3 or higher): 8.3%
CC[C@H](C)[C@H](NC(=O)[C@H](CCCNC(=N)N)NC(=O)[C@H](CCCNC(=N)N)NC(=O)[C@H](CCCNC(=N)N)NC(=O)[C@H](CCCNC(=N)N)NC(=O)[C@H](CCCNC(=N)N)NC(=O)[C@@H](N)CCCNC(=N)N)C(=O)N[C@@H](CO)C(=O)N[C@@H](Cc1ccccc1)C(=O)N[C@@H](CC(C)C)C(=O)NCC(=O)N[C@@H](CO)C(=O)N[C@@H](CCCCN)C(=O)N[C@H](C(=O)N[C@H](C(=O)N[C@H](C(=O)N[C@@H](CC(C)C)C(=O)N[C@@H](CC(C)C)C(=O)N[C@@H](CCCCN)C(=O)N[C@@H](CCCNC(=N)N)C(=O)N[C@@H](CCCNC(=N)N)C(=O)N[C@@H](CCCNC(=N)N)C(=O)N[C@@H](CCCNC(=N)N)C(=O)N[C@@H](CCCNC(=N)N)C(N)=O)C(C)C)C(C)C)C(C)C  hemolysis (human erythrocytes; 400 µM, 1 h; reference: Triton X-100): 20%
Cc1ncc2n1-c1ccc(Cl)cc1C(c1ccccc1F)=NC2  Tmax (Cytochrome P450 3A4 (CYP3A4, Homo sapiens, UniProt P08684); human, plasma; oral, 2 mg, day 1, alone, median): 0.5 h
COc1cc2c(Oc3ccc4[nH]c(C)cc4c3F)ccnc2cc1OCC1(N)CC1  grade 1 or 2 ALT elevation (paediatric recurrent refractory sarcoma; 10 mg): 0%
CC[C@H](C)[C@H](NC(=O)[C@H](C)NC(=O)[C@H](CCCNC(=N)N)NC(=O)[C@H](CCCNC(=N)N)NC(=O)[C@@H](N)CCCNC(=N)N)C(=O)N[C@@H](CO)C(=O)NCC(=O)N[C@@H](CO)C(=O)N[C@@H](CC(C)C)C(=O)N[C@H](C(=O)N[C@H](C(=O)N[C@@H](CC(C)C)C(=O)N[C@@H](Cc1ccccc1)C(=O)NCC(=O)N[C@@H](Cc1ccc(O)cc1)C(=O)N[C@@H](CCCNC(=N)N)C(=O)N[C@@H](CCCNC(=N)N)C(=O)N[C@@H](CCCNC(=N)N)C(N)=O)[C@@H](C)O)C(C)C  hemolysis (human erythrocytes; 400 µM, 1 h; reference: Triton X-100): 6%
CN1CC[C@@H](c2c(O)cc(O)c3c(=O)cc(-c4ccc(C(F)(F)F)cc4Cl)oc23)[C@@H]1CO  patients with adverse event (refers to: urinary incontinence; AML; oral, 150 mg, grade 3 to 4, intermittent dosing): 25%
C[C@@H](NC(=O)N1C(=O)[C@H](Cc2ccnc(N)c2)[C@H]1C(=O)O)C1CCCCC1  adverse events grade 3 or above (healthy Chinese adult volunteers; continuous intravenous infusion, dose not given, 5.0 days, CTCAE 5.0, all doses): 0%

Some of these lines once more:
CN1CC[C@@H](c2c(O)cc(O)c3c(=O)cc(-c4ccc(C(F)(F)F)cc4Cl)oc23)[C@@H]1CO  patients with adverse event (refers to: urinary incontinence; AML; oral, 150 mg, grade 3 to 4, intermittent dosing): 25%
